Measurements of several laboratories.
Lines come from different studies, so protocols differ. “And” joins repeats or separate records; there may be more than shown. ± gives the spread as reported.
Tln2: Tln2 312-408 (Mus musculus, UniProt Q71LX4)
Sequence of UniProt Q71LX4 (whole entry, looked up): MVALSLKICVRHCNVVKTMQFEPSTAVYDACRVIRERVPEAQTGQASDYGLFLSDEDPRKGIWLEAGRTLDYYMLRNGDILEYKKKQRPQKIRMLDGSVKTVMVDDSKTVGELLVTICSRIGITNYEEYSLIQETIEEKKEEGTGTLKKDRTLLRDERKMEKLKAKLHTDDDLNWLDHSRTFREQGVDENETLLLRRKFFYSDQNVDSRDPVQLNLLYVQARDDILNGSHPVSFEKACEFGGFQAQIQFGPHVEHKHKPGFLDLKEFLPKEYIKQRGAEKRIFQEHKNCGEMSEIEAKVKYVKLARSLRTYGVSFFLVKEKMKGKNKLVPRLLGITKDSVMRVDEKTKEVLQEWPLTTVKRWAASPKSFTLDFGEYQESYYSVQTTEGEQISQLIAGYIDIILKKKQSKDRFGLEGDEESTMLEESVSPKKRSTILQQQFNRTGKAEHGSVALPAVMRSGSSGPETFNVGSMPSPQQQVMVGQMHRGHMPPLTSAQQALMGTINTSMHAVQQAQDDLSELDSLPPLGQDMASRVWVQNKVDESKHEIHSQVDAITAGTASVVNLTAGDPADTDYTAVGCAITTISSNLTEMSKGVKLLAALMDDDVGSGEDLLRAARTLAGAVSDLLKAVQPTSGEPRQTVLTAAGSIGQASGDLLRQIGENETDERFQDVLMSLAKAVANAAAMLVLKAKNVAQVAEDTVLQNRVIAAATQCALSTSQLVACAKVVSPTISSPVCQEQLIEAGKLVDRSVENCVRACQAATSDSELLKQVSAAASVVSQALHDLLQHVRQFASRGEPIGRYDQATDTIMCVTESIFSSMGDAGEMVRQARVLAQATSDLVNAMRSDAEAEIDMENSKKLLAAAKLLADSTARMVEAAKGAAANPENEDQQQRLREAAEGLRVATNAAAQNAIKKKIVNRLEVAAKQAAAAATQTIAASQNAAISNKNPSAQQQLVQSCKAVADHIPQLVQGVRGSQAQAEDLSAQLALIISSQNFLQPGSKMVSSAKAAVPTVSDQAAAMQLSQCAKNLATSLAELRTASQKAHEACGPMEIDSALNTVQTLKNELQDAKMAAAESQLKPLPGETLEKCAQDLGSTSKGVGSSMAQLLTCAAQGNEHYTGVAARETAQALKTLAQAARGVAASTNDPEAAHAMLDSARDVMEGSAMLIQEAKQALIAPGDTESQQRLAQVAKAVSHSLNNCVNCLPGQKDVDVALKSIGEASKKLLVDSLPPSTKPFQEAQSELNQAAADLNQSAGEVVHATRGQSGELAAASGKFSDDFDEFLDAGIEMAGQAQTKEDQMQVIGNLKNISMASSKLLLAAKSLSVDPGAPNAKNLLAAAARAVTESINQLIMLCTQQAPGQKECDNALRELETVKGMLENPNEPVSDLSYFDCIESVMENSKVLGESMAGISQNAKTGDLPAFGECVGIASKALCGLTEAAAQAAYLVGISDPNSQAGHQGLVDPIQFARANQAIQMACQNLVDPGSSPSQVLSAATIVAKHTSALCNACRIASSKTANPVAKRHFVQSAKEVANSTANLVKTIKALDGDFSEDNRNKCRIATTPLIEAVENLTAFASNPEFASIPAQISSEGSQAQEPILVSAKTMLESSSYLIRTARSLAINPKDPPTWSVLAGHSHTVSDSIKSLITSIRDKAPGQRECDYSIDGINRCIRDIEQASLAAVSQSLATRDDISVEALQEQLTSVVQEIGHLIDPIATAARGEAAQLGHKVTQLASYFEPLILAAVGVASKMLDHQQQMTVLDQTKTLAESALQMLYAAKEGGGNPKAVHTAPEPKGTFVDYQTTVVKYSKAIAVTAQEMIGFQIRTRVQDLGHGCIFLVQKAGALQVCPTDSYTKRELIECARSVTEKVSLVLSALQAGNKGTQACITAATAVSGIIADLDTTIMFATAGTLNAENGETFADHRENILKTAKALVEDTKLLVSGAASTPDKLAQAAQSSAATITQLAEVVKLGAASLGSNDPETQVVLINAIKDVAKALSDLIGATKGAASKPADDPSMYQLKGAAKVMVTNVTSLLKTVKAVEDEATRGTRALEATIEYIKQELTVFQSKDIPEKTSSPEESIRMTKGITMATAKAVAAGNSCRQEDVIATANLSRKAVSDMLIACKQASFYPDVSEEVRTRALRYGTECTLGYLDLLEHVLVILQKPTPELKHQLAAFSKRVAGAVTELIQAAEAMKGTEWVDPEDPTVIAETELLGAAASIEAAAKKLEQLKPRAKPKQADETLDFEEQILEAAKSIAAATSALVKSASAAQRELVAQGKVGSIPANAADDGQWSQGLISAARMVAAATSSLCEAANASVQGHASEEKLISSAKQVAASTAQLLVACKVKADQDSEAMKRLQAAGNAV
B1: SRS2 1107-1174 Q1149E (Saccharomyces cerevisiae, UniProt P12954); N-terminal cysteine BODIPY-FL; chain CHNPDDTTVDNRPIISNAKFLADAAMKKTQKFSKKVKNEPASSEMDIFSQLSRAKKKSKLNNGEIIVID
B2: NOTCH2 221-530 (Homo sapiens, UniProt Q04721); sequence looked up; chain LYVPCAPSPCVNGGTCRQTGDFTFECNCLPGFEGSTCERNIDDCPNHRCQNGGVCVDGVNTYNCRCPPQWTGQFCTEDVDECLLQPNACQNGGTCANRNGGYGCVCVNGWSGDDCSENIDDCAFASCTPGSTCIDRVASFSCMCPEGKAGLLCHLDDACISNPCHKGALCDTNPLNGQYICTCPQGYKGADCTEDVDECAMANSNPCEHAGKCVNTDGAFHCECLKGYAGPRCEMDINECHSDPCQNDATCLDKIGGFTCLCMPGFKGVHCELEINECQSNPCVNNGQCVDKVNRFQCLCPPGFTGPVCQ
B3: human RBMX; sequence looked up; chain MVEADRPGKLFIGGLNTETNEKALEAVFGKYGRIVEVLLMKDRETNKSRGFAFVTFESPADAKDAARDMNGKSLDGKAIKVEQATKPSFESGRRGPPPPPRSRGPPRGLRGGRGGSGGTRGPPSRGGHMDDGGYSMNFNMSSSRGPLPVKRGPPPRSGGPPPKRSAPSGPVRSSSGMGGRAPVSRGRDSYGGPPRREPLPSRRDVYLSPRDDGYSTKDSYSSRDYPSSRDTRDYAPPPRDYTYRDYGHSSSRDDYPSRGYSDRDGYGRDRDYSDHPSGGSYRDSYESYGNSRSAPPTRGPPPSYGGSSRYDDYSSSRDGYGGSRDSYSSSRSDLYSSGRDRVGRQERGLPPSMERGYPPPRDSYSSSSRGAPRGGGRGGSRSDRGGGRSRY
B4: spdl-1 C-terminal 362-479 (Caenorhabditis elegans, UniProt Q17695); sequence looked up; chain PVVNKDFEHPLLAAPLKTLNNGRPSFFIKPKNVEPMPQLGHSLSSIAVTPQKPAAKFTTRSSIKDDTSEWAERRMKAQAEKKLATPTPRYNYIKLSEPVPKFKPAVLQMPSTSETKEN
B5: ADRM1 265-388 (Homo sapiens, UniProt Q16186); chain SDLQSILATMNVPAGPAGGQQVDLASVLTPEIMAPILANADVQERLLPYLPSGESLPQTADEIQNTLTSPQFQQALGMFSAALASGQLGPLMCQFGLPAEAVEAANKGDVEAFAKAMQNNAKPE
B6: IL18 37-193 C74S/C104S/C163S/L174C (Homo sapiens, UniProt Q14116); chain YFGKLESKLSVIRNLNDQVLFIDQGNRPLFEDMTDSDSRDNAPRTIFIISMYKDSQPRGMAVTISVKSEKISTLSCENKIISFKEMNPPDNIKDTKSDIIFFQRSVPGHDNKMQFESSSYEGYFLASEKERDLFKLICKKEDELGDRSIMFTVQNED
B7: Cid14/Air1 222-684 D298A/D300A (Schizosaccharomyces pombe); chain 1 SQSCPWHRQYKVEREVSRIFHQDILHFIDYITPTPEEHAVRKTLVSRINQAVLQKWPDVSLYVFGSFETKLYLPTSALALVIISPEHHYRGTKKDMFVLAHHLKKLKLASEVQVITTANVPIIKFVDPLTKVHVDISFNQPGGLKTCLVVNGFMKKYPALRPLVIIIKHFLNMRALNEVFLGGLSSYAIVCLVVSFLQLHPRLSTGSMREEDNFGVLLLEFLELYGKQFYYDAVGIAVHNGGFYFSKKKMGWLKPNQPYLLSIQDPVDFQNDVSKSSRGLLRVKATFANGFDLLTSKLYALASRIEREGVNRVKDFPSILSTILSVDEGVRQHREHMLKCYKNNPVPLEPLVEVDALASIDVDKLPLQDVGLQYVEDESDSDETDAAKDDLFKVNESIETNGHENFQKQALTSTGEQSSSNSRANPSKLFNISSDDSEDEVPIIEDTTASDEESRAKKIRKRF; chain 2 MDMTVSNQKAESDDGSDIDDAALLQKINSLPIDQSITNSVSLEKHDFQGSDDHDSSTDLSDSTLEDVEGSEWADVSRGRYFGSDPSESIVCHNCKGNGHISKDCPHVLCTTCGAIDDHISVRCPWTKKCMNCGLLGHIAARCSEPRKRGPRVCRTCHTDTHTSSTCPLIWRYYVEKEHPVRIDVSEVRKFCYNCASDEHFGDDCTLPSRSNYPESTAFCEANCPSGNDASNKEFFETRRKEFQLERREQNRNQKSSKQRPFH
B8: human corneodesmosin; sequence looked up; chain KSIGTFSDPCKDPTRITSPNDPCLTGKGDSSGFSSYSGSSSSGSSISSARSSGGGSSGSSSGSSIAQGGSAGSFKPGTGYSQVSYSSGSGSSLQGASGSSQLGSSSSHSGNSGSHSGSSSSHSSSSSSFQFSSSSFQVGNGSALPTNDNSYRGILNPSQPGQSSSSSQTFGVSSSGQSVSSNQRPCSSDIPDSPCSGGPIVSHSGPYIPSSHSVSGGQRPVVVVVDQHGSGAPGVVQGPPCSNGGLPGKPCPPITSVDKSYGGYEVVGGSSDSYLVPGMTYSKGKIYPVGYFTKENPVKGSPGVPSFAAGPPISEGKYFSSNPIIPSQSAASSAIAFQPVGTGGVQLCGGGSTGSKGPCSPSSSRVPSSSSISSSSGLPYHPCGSASQSPCSPPGTGSFSSSSSSQSSGKIILQPCGSKSSSSGHPCMSVSSLTLTGGPDGSPHPDPSAGAKPCGSSSAGKIPCRSIRDILAQVKPLGPQLADPEVFLPQGELLNSP
B9: UPF3B (Homo sapiens, UniProt Q9BZI7); sequence looked up; chain MKEEKEHRPKEKRVTLLTPAGATGSGGGTSGDSSKGEDKQDRNKEKKEALSKVVIRRLPPTLTKEQLQEHLQPMPEHDYFEFFSNDTSLYPHMYARAYINFKNQEDIILFRDRFDGYVFLDNKGQEYPAIVEFAPFQKAAKKKTKKRDTKVGTIDDDPEYRKFLESYATDNEKMTSTPETLLEEIEAKNRELIAKKTTPLLSFLKNKQRMREEKREERRRREIERKRQREEERRKWKEEEKRKRKDIEKLKKIDRIPERDKLKDEPKIKVHRFLLQAVNQKNLLKKPEKGDEKELDKREKAKKLDKENLSDERASGQSCTLPKRSDSELKDEKPKRPEDESGRDYREREREYERDQERILRERERLKRQEEERRRQKERYEKEKTFKRKEEEMKKEKDTLRDKGKKAESTESIGSSEKTEKKEEVVKRDRIRNKDRPAMQLYQPGARSRNRLCPPDDSTKSGDSAAERKQESGISHRKEGGEE
B10: TARDBP 262-414 (Homo sapiens, UniProt Q13148); chain PKHNSNRQLERSGRFGGNPGGFGNQGGFGNSRGGGAGLGNNQGSNMGGGMNFGAFSINPAMMAAAQAALQSSWGMMGMLASQQNQSGPSGNNQNQGNMQREPNQAFGSGNNSYSGSNSGAAIGWGSASNAGSGSGFNGGFGSSMDSKSSGWGM
B11: BTN2A2 287-523 M506T (Homo sapiens, UniProt Q8WVV5); sequence looked up; chain KKLQREKKILSGEKKVEQEEKEIAQQLQEELRWRRTFLHAADVVLDPDTAHPELFLSEDRRSVRRGPYRQRVPDNPERFDSQPCVLGWESFASGKHYWEVEVENVMVWTVGVCRHSVERKGEVLLIPQNGFWTLEMFGNQYRALSSPERILPLKESLCRVGVFLDYEAGDVSFYNMRDRSHIYTCPRSAFTVPVRPFFRLGSDDSPIFICPALTGASGVTVPEEGLKLHRVGTHQSL
B12: TNFSF4 51-183 (Homo sapiens, UniProt P23510); sequence looked up; chain QVSHRYPRIQSIKVQFTEYKKEKGFILTSQKEDEIMKVQNNSVIINCDGFYLISLKGYFSQEVNISLHYQKDEEPLFQLKKVRSVNSLMVASLTYKDKVYLNVTTDNTSLDDFHVNGGELILIHQNPGEFCVL
Sequence of UniProt Q9UJY1 (whole entry, looked up): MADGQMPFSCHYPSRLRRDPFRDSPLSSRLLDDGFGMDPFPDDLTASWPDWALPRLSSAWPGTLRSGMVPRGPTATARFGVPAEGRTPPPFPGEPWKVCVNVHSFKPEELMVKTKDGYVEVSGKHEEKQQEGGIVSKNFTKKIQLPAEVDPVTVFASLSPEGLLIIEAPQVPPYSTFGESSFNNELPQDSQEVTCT
Sequence of UniProt P40161 (68-301, looked up): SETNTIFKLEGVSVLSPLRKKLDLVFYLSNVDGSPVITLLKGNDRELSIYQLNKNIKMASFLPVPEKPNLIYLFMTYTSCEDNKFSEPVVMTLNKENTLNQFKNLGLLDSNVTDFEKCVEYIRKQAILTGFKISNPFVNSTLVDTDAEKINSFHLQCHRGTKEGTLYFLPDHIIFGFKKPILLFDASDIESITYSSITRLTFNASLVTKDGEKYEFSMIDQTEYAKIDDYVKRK
Sequence of UniProt P63167 (whole entry, looked up): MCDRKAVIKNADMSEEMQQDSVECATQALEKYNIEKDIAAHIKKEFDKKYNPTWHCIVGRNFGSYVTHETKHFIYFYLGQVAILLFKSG
Sequence of UniProt Q23985 (whole entry, looked up): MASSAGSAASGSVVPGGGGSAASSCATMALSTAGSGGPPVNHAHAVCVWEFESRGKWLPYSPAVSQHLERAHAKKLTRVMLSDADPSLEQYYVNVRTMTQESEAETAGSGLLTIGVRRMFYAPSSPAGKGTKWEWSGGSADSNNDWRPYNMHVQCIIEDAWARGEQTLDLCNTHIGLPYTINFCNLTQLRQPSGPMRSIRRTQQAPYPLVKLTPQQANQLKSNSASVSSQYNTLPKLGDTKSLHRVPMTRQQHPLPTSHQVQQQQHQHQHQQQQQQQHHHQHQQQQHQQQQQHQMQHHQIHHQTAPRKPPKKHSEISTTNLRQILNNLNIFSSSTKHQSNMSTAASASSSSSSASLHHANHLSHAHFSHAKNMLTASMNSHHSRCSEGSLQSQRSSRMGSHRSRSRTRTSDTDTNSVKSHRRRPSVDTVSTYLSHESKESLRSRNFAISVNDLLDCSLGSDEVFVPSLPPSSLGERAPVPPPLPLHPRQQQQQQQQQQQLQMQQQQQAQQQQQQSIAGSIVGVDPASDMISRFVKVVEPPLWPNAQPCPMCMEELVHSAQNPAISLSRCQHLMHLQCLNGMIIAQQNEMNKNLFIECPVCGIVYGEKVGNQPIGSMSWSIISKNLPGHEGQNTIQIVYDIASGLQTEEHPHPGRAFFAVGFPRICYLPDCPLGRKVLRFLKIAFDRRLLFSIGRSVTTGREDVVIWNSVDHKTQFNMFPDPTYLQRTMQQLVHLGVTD
Sequence of UniProt Q9HAU5 (whole entry, looked up): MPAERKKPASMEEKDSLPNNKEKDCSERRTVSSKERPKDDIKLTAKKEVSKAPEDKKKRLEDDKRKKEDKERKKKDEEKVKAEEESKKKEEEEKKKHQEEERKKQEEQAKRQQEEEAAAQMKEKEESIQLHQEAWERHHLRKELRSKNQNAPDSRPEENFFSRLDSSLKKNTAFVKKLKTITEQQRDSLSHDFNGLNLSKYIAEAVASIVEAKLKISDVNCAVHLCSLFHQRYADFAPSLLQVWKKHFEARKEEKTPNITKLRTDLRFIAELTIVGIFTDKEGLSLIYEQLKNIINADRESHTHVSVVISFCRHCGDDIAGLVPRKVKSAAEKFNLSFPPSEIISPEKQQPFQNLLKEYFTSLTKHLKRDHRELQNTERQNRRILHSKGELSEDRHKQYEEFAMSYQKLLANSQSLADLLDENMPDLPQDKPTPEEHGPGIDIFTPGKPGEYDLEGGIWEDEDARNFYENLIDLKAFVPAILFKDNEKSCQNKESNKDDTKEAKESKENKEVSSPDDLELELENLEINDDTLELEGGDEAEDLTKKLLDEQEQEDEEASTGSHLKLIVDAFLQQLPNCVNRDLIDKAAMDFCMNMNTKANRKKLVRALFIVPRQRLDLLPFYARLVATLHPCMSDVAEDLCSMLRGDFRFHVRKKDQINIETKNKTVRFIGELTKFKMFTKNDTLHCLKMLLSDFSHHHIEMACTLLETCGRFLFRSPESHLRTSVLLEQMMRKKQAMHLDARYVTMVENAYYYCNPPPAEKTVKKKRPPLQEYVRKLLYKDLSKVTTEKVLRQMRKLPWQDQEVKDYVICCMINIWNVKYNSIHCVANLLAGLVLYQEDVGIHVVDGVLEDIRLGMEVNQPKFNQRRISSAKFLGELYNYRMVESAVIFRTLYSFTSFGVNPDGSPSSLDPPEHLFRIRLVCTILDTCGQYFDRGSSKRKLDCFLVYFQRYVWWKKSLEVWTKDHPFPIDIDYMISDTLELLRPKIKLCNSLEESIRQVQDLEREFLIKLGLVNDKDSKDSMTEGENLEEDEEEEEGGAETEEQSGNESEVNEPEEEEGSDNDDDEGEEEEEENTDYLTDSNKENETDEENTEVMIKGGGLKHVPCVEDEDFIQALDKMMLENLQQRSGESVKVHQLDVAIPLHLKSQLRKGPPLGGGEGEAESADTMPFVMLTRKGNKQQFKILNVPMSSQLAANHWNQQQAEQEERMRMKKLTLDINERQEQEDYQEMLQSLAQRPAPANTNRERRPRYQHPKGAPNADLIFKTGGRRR

For `GSS fragment, C-terminal cyclic imide (Homo sapiens)`, the Kd was 0.00686 µM (CRBN/DDB1; FRET or BRET).
`B1 (SRS2 1107-1174 Q1149E)` gave a Kd of 0.51 µM (POL30 1-258 K127G (Saccharomyces cerevisiae, UniProt P15873); fluorescence polarisation; apparent).
With `B2 (NOTCH2 221-530)` the Kd was 0.054 µM (DLL4 27-400 G28S/F107L/I143F/H194Y/L206P/N257P/T271L/F280Y/S301R/Q305P (Homo sapiens, UniProt Q9NR61); SPR).
The Kd of `KLLMIIHDRREFAKFEKEKMNAKWDTQENPIYKSAVTTVVNPKYEGK (ITGB1 752-798 G778Q (Homo sapiens, UniProt P05556-1); sequence looked up)` is reported as 236 µM (Tln2; NMR titration).
`B3 (human RBMX)` — result for “log2 fold change”: -0.47 (CYB5R4 knockout human cells; PP6 interaction, 3xFLAG-PP6C IP-MS; concentration not given; reference: CYB5R4 KO over parental).
With `B4 (spdl-1 C-terminal 362-479)` the Kd was 13.4 ± 5 µM (rod-1 2-418 (Caenorhabditis elegans, UniProt Q20849); SPR).
`B5 (ADRM1 265-388)` has a Kd of 0.0051 µM (UCHL5 E283A (Homo sapiens); ITC).
`DHEYVLTESFLDSGAFPNHDVIDHNKMLNSNYNGNGILNKGGVLGLVKEYYKKSDVGR (ATG9 940-997 (Saccharomyces cerevisiae, UniProt Q12142); sequence looked up)` has a Kd of 0.76 µM (ATG23 A34E (UniProt Q06671); BLI).
For `Il2ra soluble (Mus musculus) (sequence not shown)`, the Kd was 0.25 µM (Il2 (Mus musculus, UniProt P04351); SPR).
For `Notch ankyrin domain M115A/R107A (Drosophila)`, the Kd was 23.9 µM (dx (Drosophila melanogaster, UniProt Q23985); AUC).
With `B6` the Kd was 7e-06 µM (IL18BP (Homo sapiens, UniProt O95998); SPR).
`B7 (Cid14/Air1 222-684 D298A/D300A)` gave a Kd of 0.179 ± 0.059 µM (mtr4 (Schizosaccharomyces pombe, UniProt O14232); SPR).
`B8 (human corneodesmosin)`: “log2 fold change” 0.29 (PP6C (human); co-immunoprecipitation, IP-MS; CYB5R4 knockout cells; concentration not given; reference: CYB5R4 knockout over parental).
The Kd of `RSSVITSA (ZBTB16 residues 285-292 (Homo sapiens))` is reported as 11.9 µM and 15.1 µM (IRF2BP2 fragment (Homo sapiens); ITC; peptide).
For `VWF fragment (Homo sapiens)`, the Kd was 0.0021 µM (APOB/LDL apoB100 (Homo sapiens); ELISA).
`KLLMIIHDRREFAKFEKEKMNAKWDTQENPIYKEPINNFKNPNYGRKAGL (ITGB1 752-801 S785E (Homo sapiens, UniProt P05556-5); sequence looked up)` gave a Kd of 71 µM (Tln2; NMR titration).
With `HHT1 fragment` the Kd was 1900 ± 400 µM (RTT106 residues 68-301 (Saccharomyces cerevisiae, UniProt P40161); NMR titration).
With `B9 (UPF3B)` the Kd was 0.0207 µM (UPF2 (Homo sapiens, UniProt Q9HAU5); BLI).
`VGSPKNAVPP (IL1RAP 234-243 (Homo sapiens); acetylated N-terminus/C-terminal amide)` gave a Kd of 105 µM (IL1RL1/IL33 ST2 , IL-33 19-328; SPR; peptide).
The Kd of `SVCETGSNTEE (KANK1 peptide)` is reported as over 60 µM (DYNLL1 (Homo sapiens, UniProt P63167); ITC; peptide; 25 °C).
For `B10 (TARDBP 262-414)`, the Kd was 0.41 µM (HSPB8, fluorescein label (UniProt Q9UJY1); FP).
With `B11 (BTN2A2 287-523 M506T)` the Kd was 0.031 µM (BTN3A3 272-584 R381H (Homo sapiens, UniProt O00478); ITC).
`F2 thrombin S195A` has a Kd of 1.03 ± 0.05 µM (GP1BA 284-300 (UniProt P07359); BLI).
`APMKWL (designed peptide; FITC label)` has a Kd of 102 µM (NHERF2 142-254 (Homo sapiens, UniProt Q15599-1); fluorescence intensity change, fluorescence titration; peptide).
With `B12 (TNFSF4 51-183)` the Kd was 1 µM (TNFRSF4 29-170 (Homo sapiens, UniProt P43489); SPR).

Repeated from above:
With `B11 (BTN2A2 287-523 M506T)` the Kd was 0.031 µM (BTN3A3 272-584 R381H (Homo sapiens, UniProt O00478); ITC).
`F2 thrombin S195A` has a Kd of 1.03 ± 0.05 µM (GP1BA 284-300 (UniProt P07359); BLI).
